Published values of several laboratories.
Each line is one published result; not all experiments were run side by side. Values joined by “and” are separate records of one study, mostly repeats; a detail may differ.
Partner: itself
B1: HARS1 1-509 (Homo sapiens, UniProt P12081-1); chain MAERAALEELVKLQGERVRGLKQQKASAELIEEEVAKLLKLKAQLGPDESKQKFVLKTPKGTRDYSPRQMAVREKVFDVIIRCFKRHGAEVIDTPVFELKETLMGKYGEDSKLIYDLKDQGGELLSLRYDLTVPFARYLAMNKLTNIKRYHIAKVYRRDNPAMTRGRYREFYQCDFDIAGNFDPMIPDAECLKIMCEILSSLQIGDFLVKVNDRRILDGMFAICGVSDSKFRTICSSVDKLDKVSWEEVKNEMVGEKGLAPEVADRIGDYVQQHGGVSLVEQLLQDPKLSQNKQALEGLGDLKLLFEYLTLFGIDDKISFDLSLARGLDYYTGVIYEAVLLQTPAQAGEEPLGVGSVAAGGRYDGLVGMFDPKGRKVPCVGLSIGVERIFSIVEQRLEALEEKIRTTETQVLVASAQKKLLEERLKLVSELWDAGIKAELLYKKNPKLLNQLQYCEEAGIPLVAIIGEQELKDGVIKLRSVTSREEVDVRREDLVEEIKRRTGQPLCIC
B2: INHBA 311-426 (Homo sapiens, UniProt P08476); sequence looked up; chain GLECDGKVNICCKKQFFVSFKDIGWNDWIIAPSGYHANYCEGECPSHIAGTSGSSLSFHSTVINHYRMRGHSPFANLKSCCVPTKLRPMSMLYYDDGQNIIKKDIQNMIVEECGCS
B3: SLFN14 E206A/E211A (Homo sapiens, UniProt P0C7P3); sequence looked up; chain MESLKTDTEMPYPEVIVDVGRVIFGEENRKKMTNSCLKRSENSRIIRAICALLNSGGGVIKAEIDDKTYSYQCHGLGQDLETSFQKLLPSGSQKYLDYMQQGHNLLIFVKSWSPDVFSLPLRICSLRSNLYRRDVTSAINLSASSALELLREKGFRAQRGRPRVKKLHPQQVLNRCIQEEEDMRILASEFFKKDKLMYKEKLNFTASTHVAFKRFTTKKVIPRIKEMLPHYVSAFANTQGGYVLIGVDDKSKEVVGCKWEKVNPDLLKKEIENCIEKLPTFHFCCEKPKVNFTTKILNVYQKDVLDGYVCVIQVEPFCCVVFAEAPDSWIMKDNSVTRLTAEQWVVMMLDTQSAPPSLVTDYNSCLISSASSARKSPGYPIKVHKFKEALQRHLFPVTQEEVQFKPESLCKKLFSDHKELEGLMKTLIHPCSQGIVIFSRSWAGDVGFRKEQNVLCDALLIAVNSPVVLYTILIDPNWPGGLEYARNTAHQLKQKLQTVGGYTGKVCIIPRLIHLSSTQSRPGEIPLRYPRSYRLADEEEMEDLLQALVVVSLSSRSLLSDQMGCEFFNLLIMEQSQLLSESLQKTRELFIYCFPGVRKTALAIKIMEKIKDLFHCKPKEILYVCESDSLKDFVTQQTTCQAVTRKTFMQGEFLKIKHIVMDETENFCSKYGNWYMKAKNITHPKAKGTGSENLHHGILWLFLDPFQIHHADVNGLPPPSAQFPRKTITSGIHCALEIAKVMKEEMKRIKENPPSNMSPDTLALFSETAYEEATCAQALPGVCETKTNLTTEQIANYVARKCHSLFQCGYLPKDIAILCRRGEDRGRYRLALLKAMELIETHRPSEVVFSPATGVWGSHIVLDSIQQFSGLERTVVFGLSPECDQSEEFHKLCFASRAIKHLYLLYEKRAAY
B4: FabZ 3-149 (Kuenenia stuttgartiensis, UniProt Q1Q2X5); chain LFEEIRSLLPQKYPFIFIDRAIEFEESKRIVCVKNISGNEPVFVGHFPDFAIMPGVLIIEAMAQASIILFRKSLPSRNDEDAVFLLASVNNARFTKPVVPGDQLTIEVIVEKIVSRGAIVQSVVKVQEKVVAKAALTFGIVEKSSLV
B5: PF1070 1-140 E34A (Pyrococcus furiosus, UniProt Q8U1Y4); sequence looked up; chain MPSSSKSDFSFSTLIIPQHYLRAILKVVSSSSVAVCGFLFGKENRVLKVRFIRNRLNSPVEFEMDPEEMLKALEEAEQENLEVVGIFHSHIACPPIPSGKDLEGMKRWPVIWLIVNEKGEYKAWILSEKNKISEVKIVVE
B6: fesII 1-122 (Azotobacter vinelandii, UniProt Q44501); chain MATIYFSSPLMPHNKKVQAVAGKRSTLLGVAQENGVKIPFECQDGNCGSCLVKITHLDGERIKGMLLTDKERNVLKSVGKLPKSEEERAAVRDLPPTYRLACQTIVTDEDLLVEFTGEPGGA
B7: CENPF 1-385 (Homo sapiens, UniProt P49454); sequence looked up; chain MSWALEEWKEGLPTRALQKIQELEGQLDKLKKEKQQRQFQLDSLEAALQKQKQKVENEKTEGTNLKRENQRLMEICESLEKTKQKISHELQVKESQVNFQEGQLNSGKKQIEKLEQELKRCKSELERSQQAAQSADVSLNPCNTPQKIFTTPLTPSQYYSGSKYEDLKEKYNKEVEERKRLEAEVKALQAKKASQTLPQATMNHRDIARHQASSSVFSWQQEKTPSHLSSNSQRTPIRRDFSASYFSGEQEVTPSRSTLQIGKRDANSSFFDNSSSPHLLDQLKAQNQELRNKINELELRLQGHEKEMKGQVNKFQELQLQLEKAKVELIEKEKVLNKCRDELVRTTAQYDQASTKYTALEQKLKKLTEDLSCQRQNAESARCSL
B8: lacI 1-360 N125C (Escherichia coli, UniProt P03023); chain MKPVTLYDVAEYAGVSYQTVSRVVNQASHVSAKTREKVEAAMAELNYIPNRVAQQLAGKQSLLIGVATSSLALHAPSQIVAAIKSRADQLGASVVVSMVERSGVEACKAAVHNLLAQRVSGLIICYPLDDQDAIAVEAACTNVPALFLDVSDQTPINSIIFSHEDGTRLGVEHLVALGHQQIALLAGPLSSVSARLRLAGWHKYLTRNQIQPIAEREGDWSAMSGFQQTMQMLNEGIVPTAMLVANDQMALGAMRAITESGLRVGADISVVGYDDTEDSSCYIPPLTTIKQDFRLLGQTSVDRLLQLSQGQAVKGNQLLPVSLVKRKTTLAPNTQTASPRALADSLMQLARQVSRLESGQ
B9: RB1CC1 1286-1395 (Homo sapiens, UniProt Q8TDY2); chain SLVAELQEKLQEEKAKFLEQLEEQEKRKNEEMQNVRTSLIAEQQTNFNTVLTREKMRKENIINDLSDKLKSTMQQQERDKDLIESLSEDRARLLEEKKKLEEEVSKLRSS
B10: GBP2 1-309 (Homo sapiens, UniProt P32456); sequence looked up; chain MAPEINLPGPMSLIDNTKGQLVVNPEALKILSAITQPVVVVAIVGLYRTGKSYLMNKLAGKKNGFSLGSTVKSHTKGIWMWCVPHPKKPEHTLVLLDTEGLGDIEKGDNENDSWIFALAILLSSTFVYNSMGTINQQAMDQLHYVTELTDRIKANSSPGNNSVDDSADFVSFFPAFVWTLRDFTLELEVDGEPITADDYLELSLKLRKGTDKKSKSFNDPRLCIRKFFPKRKCFVFDWPAPKKYLAHLEQLKEEELNPDFIEQVAEFCSYILSHSNVKTLSGGIPVNGPRLESLVLTYVNAISSGDLPC
B11: phage phi29 gene 12 product D1*-D2-D3-D4 89-854 G817S/S777N/D701G/A535V/D457E/G449V/D372A/Q181E/K166R/D692N (bacteriophage phi29, UniProt P20345); N-terminal His6; sequence looked up; chain FADLVIQVIDELKQFGVSVKTYGAKGDGVTDDIRAFEKAIESGFPVYVPYGTFMVSRGIKLPSNTVLTGAGKRNAVIRFMDSVGRGESLMYNENVTTGNENIFLSSFTLDGNNKRLGQGISGIGGSRESNLSIRACHNVYIRDIEAVDCTLHGIDITCGGLDYPYLGDGTTAPNPSENIWIENCEATGFGDDGITTHHSQYINILNCYSHDPRLTANCNGFEIDDGSRHVVLSNNRSKGCYGGIEIKAHGDAPAAYNISINGHMSVEDVRSYNFRHIGHHAATAPQSVSAKNIVASNLVSIRPNNKRGFQDNATPRVLAVSAYYGVVINGLTGYTDDPNLLTETVVSVQFRARNCSLNGVVLTGFSNSENGIYVIGGSRGGDAVNISNVTLNNSGRYGVSIGSGIENVSITNISGIGDGINSPVALVSTINSNPEISGLSSIGYPTVARVAGTDYNDGLTLFNGAFRASTTSSGKIHSEGFIMGSTSGCEASVSKSGVLTSSSSKTSSERSLIAGSSTSEAKGTYNTILGSLGAVADEQFAALISASQSRASGNHNLILSSYGINTTGSYKVNGGFEKINWELDSLNGRIKARDTVTGGNTWSNFAEYFESLGGQVIETGYLVTLEKGKIRKAEKGEKIIGVISETAGFVLGESSFEWQGAVLKNEFGGIIYEEVTTEDGVKFKRPLPNPDFDPNKNYIPRSQRREWHVVGLLGQIAVRIDETVKQGHSIDAVGGVATDGDNFIVQEITTPYTKEKGYGVAIVLVK
B12: cfbA 1-143 S11F (Methanocaldococcus jannaschii, UniProt Q58380); chain MEALVLVGHGFRLPYSKELLVKLAEKVKERNLFPIVEIGLMEFSEPTIPQAVKKAIEQGAKRIIVVPVFLAHGIHTTRDIPRLLGLIEDNHEHHHEHSHHHHHHHHHEHEKLEIPEDVEIIYREPIGADDRIVDIIIDRAFGR
B13: Nefl 85-543 (Mus musculus, UniProt P08551); sequence looked up; chain SIRTQEKAQLQDLNDRFASFIERVHELEQQNKVLEAELLVLRQKHSEPSRFRALYEQEIRDLRLAAEDATNEKQALQGEREGLEETLRNLQARYEEEVLSREDAEGRLMEARKGADEAALARAELEKRIDSLMDEIAFLKKVHEEEIAELQAQIQYAQISVEMDVSSKPDLSAALKDIRAQYEKLAAKNMQNAEEWFKSRFTVLTESAAKNTDAVRAAKDEVSESRRLLKAKTLEIEACRGMNEALEKQLQELEDKQNADISAMQDTINKLENELRSTKSEMARYLKEYQDLLNVKMALDIEIAAYRKLLEGEETRLSFTSVGSITSGYSQSSQVFGRSAYSGLQSSSYLMSARSFPAYYTSHVQEEQTEVEETIEATKAEEAKDEPPSEGEAEEEEKEKEEGEEEEGAEEEEAAKDESEDTKEEEEGGEGEEEDTKESEEEEKKEESAGEEQVAKKKD
B14: PsbS mature P132A (Arabidopsis thaliana, UniProt Q9XF91); sequence looked up; chain AAPKKVEKPKSKVEDGIFGTSGGIGFTKANELFVGRVAMIGFAASLLGEALTGKGILAQLNLETGIPIYEAEALLLFFILFTLLGAIGALGDRGKFVDDPPTGLEKAVIPPGKNVRSALGLKEQGPLFGFTKANELFVGRLAQLGIAFSLIGEIITGKGALAQLNIETGIPIQDIEPLVLLNVAFFFFAAINPGNGKFITDDGEES
B15: Pah F80D (Rattus norvegicus, UniProt P04176); sequence looked up; chain MAAVVLENGVLSRKLSDFGQETSYIEDNSNQNGAISLIFSLKEEVGALAKVLRLFEENDINLTHIESRPSRLNKDEYEFDTYLDKRTKPVLGSIIKSLRNDIGATVHELSRDKEKNTVPWFPRTIQELDRFANQILSYGAELDADHPGFKDPVYRARRKQFADIAYNYRHGQPIPRVEYTEEEKQTWGTVFRTLKALYKTHACYEHNHIFPLLEKYCGFREDNIPQLEDVSQFLQTCTGFRLRPVAGLLSSRDFLGGLAFRVFHCTQYIRHGSKPMYTPEPDICHELLGHVPLFSDRSFAQFSQEIGLASLGAPDEYIEKLATIYWFTVEFGLCKEGDSIKAYGAGLLSSFGELQYCLSDKPKLLPLELEKTACQEYSVTEFQPLYYVAESFSDAKEKVRTFAATIPRPFSVRYDPYTQRVEVLDNTQQLKILADSINSEVGILCNALQKIKS
UniProt P14712, sequence (whole entry, looked up): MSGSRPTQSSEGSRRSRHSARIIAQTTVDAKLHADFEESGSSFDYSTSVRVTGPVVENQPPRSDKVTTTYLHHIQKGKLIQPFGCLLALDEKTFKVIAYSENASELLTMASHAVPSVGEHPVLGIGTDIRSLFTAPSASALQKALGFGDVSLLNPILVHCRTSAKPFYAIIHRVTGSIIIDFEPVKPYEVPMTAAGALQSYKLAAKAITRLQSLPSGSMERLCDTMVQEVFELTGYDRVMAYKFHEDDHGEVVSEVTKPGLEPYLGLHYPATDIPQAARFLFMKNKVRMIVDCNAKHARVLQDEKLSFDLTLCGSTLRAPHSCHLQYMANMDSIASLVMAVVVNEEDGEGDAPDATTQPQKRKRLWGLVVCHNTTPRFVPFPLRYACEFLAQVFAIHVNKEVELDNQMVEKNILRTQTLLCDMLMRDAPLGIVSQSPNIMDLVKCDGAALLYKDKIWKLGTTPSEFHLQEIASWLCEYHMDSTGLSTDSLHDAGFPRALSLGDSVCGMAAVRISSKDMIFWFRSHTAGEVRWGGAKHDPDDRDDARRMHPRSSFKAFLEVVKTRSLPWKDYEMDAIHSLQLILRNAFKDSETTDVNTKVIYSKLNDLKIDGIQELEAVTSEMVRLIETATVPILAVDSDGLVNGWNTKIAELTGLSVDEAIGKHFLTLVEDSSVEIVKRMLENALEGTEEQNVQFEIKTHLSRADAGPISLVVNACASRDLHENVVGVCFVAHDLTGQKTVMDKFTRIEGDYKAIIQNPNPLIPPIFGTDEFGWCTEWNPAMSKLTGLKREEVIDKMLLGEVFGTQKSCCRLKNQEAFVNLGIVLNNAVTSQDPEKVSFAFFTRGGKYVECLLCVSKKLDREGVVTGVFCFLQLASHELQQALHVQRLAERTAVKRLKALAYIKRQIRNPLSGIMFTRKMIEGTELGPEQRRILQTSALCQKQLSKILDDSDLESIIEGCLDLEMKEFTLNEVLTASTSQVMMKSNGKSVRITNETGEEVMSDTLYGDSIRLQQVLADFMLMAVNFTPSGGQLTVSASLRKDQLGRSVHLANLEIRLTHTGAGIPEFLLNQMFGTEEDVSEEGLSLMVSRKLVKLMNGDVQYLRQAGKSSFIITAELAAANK

Substance	assay	conditions	subunits per oligomer
B1 (HARS1 1-509)	SEC	–	2
PHYA, phytochromobilin thioether linked (Arabidopsis thaliana, UniProt P14712)	SEC	–	2
B2 (INHBA 311-426)	western blot	–	2
LSRMNREELEDSFFRLREDHMLVKELSWKQQDEIKRLRTTLLRLTAAGRDL (RPGRIP1 38-88 (Homo sapiens, UniProt Q96KN7-1); sequence looked up)	SEC-MALS	–	2
B3 (SLFN14 E206A/E211A)	SEC	–	2
B4 (FabZ 3-149)	X-ray crystallography	–	6
B5 (PF1070 1-140 E34A)	SEC	–	2
B6 (fesII 1-122)	AUC	–	2
B7 (CENPF 1-385)	SEC-MALS	–	2
B8 (lacI 1-360 N125C)	SEC	–	4
B9 (RB1CC1 1286-1395)	X-ray crystallography	–	2
B10 (GBP2 1-309)	SEC	–	2
B11	SDS-PAGE	–	3
B12 (cfbA 1-143 S11F)	SEC	–	2
B13 (Nefl 85-543)	AUC, electron microscopy	–	2 and 4
B14 (PsbS mature P132A)	native PAGE	not purified	2
B15 (Pah F80D)	SEC	–	4
